# Results collected from several papers.
# Parts stem from different laboratories: compare values within a part only. Values joined by “and” are separate records of one study, mostly repeats; a detail may differ.
# Sequence of UniProt Q92630 (whole entry, looked up): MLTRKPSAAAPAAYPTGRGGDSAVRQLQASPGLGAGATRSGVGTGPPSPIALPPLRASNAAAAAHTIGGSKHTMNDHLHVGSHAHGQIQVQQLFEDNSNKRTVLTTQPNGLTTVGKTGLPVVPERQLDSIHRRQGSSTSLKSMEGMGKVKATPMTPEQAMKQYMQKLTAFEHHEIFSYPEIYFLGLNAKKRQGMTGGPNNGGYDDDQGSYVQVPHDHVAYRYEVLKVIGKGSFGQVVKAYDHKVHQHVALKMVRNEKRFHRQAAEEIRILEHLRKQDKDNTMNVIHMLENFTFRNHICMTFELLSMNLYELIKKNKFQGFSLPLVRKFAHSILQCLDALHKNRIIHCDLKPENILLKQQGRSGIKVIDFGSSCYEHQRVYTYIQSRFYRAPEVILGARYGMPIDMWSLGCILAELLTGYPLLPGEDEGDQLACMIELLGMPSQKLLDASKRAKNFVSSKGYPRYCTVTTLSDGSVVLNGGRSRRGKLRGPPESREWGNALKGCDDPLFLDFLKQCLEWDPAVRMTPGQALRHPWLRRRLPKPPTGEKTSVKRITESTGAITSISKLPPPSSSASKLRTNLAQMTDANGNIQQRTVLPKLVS
# Sequence of UniProt P42336 (whole entry, unmodified, looked up): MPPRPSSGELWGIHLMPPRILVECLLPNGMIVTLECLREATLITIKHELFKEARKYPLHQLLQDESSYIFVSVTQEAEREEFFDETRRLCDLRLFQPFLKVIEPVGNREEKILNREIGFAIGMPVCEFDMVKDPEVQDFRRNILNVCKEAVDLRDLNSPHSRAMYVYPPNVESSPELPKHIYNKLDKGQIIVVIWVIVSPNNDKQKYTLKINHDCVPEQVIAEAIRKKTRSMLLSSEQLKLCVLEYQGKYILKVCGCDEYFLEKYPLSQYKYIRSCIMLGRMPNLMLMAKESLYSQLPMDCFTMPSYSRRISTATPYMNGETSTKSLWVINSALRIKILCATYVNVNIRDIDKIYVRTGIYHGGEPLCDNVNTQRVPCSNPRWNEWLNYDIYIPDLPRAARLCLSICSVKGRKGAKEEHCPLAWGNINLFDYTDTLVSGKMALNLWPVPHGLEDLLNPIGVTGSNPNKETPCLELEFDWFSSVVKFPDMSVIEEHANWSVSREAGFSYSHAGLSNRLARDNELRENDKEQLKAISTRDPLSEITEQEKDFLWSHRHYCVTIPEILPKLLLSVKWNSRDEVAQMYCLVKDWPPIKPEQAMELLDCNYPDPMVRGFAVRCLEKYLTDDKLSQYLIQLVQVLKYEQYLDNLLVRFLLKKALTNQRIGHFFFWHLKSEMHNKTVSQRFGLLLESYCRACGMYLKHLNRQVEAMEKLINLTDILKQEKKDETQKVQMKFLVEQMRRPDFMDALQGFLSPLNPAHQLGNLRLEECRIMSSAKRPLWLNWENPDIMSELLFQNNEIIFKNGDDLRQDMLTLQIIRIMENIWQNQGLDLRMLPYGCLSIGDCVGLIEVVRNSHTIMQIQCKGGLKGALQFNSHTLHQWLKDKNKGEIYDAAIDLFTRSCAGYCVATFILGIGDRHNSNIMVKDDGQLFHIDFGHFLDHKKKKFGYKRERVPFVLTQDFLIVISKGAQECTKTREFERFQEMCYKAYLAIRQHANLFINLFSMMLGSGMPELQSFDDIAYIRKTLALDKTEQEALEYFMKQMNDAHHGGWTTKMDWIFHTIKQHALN
# Sequence of UniProt Q13188 (whole entry, looked up): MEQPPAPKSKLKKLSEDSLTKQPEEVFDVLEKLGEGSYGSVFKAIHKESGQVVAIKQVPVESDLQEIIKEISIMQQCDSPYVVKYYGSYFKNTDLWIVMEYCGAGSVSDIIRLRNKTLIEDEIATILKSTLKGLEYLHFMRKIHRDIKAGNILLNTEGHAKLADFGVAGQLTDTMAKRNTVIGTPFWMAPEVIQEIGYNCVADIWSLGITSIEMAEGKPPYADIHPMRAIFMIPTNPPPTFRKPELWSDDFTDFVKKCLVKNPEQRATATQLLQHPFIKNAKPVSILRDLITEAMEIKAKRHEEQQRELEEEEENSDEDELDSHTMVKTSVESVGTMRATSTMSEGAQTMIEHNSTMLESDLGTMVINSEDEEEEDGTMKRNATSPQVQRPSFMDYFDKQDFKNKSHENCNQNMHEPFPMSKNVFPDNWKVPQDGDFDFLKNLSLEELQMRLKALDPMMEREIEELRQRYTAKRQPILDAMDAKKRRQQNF
# Sequence of UniProt P07332 (whole entry, looked up): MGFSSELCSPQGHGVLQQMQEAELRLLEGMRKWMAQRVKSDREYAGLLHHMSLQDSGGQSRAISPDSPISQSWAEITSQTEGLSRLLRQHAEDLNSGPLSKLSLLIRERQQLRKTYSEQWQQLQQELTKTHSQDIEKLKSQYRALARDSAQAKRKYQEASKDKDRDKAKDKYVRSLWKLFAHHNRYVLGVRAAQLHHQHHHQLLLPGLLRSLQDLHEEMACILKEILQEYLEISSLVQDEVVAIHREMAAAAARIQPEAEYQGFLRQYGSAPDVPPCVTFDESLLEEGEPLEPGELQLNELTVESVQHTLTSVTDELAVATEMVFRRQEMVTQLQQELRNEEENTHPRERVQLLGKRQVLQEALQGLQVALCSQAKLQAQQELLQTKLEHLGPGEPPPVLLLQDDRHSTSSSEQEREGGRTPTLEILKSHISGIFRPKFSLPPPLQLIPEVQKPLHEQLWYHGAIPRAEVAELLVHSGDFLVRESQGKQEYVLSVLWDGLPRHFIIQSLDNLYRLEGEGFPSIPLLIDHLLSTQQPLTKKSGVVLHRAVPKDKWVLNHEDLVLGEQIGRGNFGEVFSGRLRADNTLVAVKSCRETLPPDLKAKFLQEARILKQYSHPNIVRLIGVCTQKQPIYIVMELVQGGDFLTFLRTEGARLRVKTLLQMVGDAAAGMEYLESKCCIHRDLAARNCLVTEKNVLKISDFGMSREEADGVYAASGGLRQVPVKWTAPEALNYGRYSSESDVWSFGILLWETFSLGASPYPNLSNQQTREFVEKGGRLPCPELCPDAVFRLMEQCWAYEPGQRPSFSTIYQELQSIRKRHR
# Sequence of UniProt P08631 (whole entry, looked up): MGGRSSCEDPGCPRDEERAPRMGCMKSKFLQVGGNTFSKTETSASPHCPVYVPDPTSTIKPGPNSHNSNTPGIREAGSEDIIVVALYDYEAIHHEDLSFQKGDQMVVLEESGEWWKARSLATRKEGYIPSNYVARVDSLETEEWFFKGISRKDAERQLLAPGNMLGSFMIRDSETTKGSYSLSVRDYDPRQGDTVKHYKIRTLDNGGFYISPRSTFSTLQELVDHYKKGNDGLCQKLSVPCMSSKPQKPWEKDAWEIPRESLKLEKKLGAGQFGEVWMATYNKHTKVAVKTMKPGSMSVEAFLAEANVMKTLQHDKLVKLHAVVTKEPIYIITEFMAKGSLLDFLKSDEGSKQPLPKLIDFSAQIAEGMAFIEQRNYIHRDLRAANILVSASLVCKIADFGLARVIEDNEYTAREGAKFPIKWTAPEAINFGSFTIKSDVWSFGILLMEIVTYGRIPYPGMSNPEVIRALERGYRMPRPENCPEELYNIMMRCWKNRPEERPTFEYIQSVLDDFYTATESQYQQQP
# Sequence of UniProt P21709 (whole entry, looked up): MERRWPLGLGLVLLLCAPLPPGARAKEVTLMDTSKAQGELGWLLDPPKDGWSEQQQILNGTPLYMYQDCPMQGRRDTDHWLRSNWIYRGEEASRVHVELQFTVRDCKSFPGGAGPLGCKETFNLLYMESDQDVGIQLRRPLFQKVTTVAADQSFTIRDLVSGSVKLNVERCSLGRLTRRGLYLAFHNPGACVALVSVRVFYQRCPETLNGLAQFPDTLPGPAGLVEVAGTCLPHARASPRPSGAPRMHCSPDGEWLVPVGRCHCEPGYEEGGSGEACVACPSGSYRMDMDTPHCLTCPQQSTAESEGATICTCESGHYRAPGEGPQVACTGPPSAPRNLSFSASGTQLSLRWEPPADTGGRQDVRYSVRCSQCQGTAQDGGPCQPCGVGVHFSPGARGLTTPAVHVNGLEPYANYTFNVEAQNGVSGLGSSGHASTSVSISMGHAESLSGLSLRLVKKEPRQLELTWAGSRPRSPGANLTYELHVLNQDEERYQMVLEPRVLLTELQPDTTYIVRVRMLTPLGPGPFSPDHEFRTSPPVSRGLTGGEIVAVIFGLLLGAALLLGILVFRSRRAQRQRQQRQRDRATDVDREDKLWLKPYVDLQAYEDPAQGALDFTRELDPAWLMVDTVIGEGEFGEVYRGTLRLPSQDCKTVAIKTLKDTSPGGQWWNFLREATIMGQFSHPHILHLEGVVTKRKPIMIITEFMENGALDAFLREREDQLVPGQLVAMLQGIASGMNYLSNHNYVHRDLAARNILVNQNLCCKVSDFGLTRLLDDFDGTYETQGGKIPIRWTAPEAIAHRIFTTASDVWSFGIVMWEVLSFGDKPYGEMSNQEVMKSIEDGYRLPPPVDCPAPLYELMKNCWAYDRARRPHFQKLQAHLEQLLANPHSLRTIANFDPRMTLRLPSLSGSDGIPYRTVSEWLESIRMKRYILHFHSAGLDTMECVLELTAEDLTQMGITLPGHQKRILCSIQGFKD

# Series 1
# SMILES: Cn1cc(Cl)c2c(Oc3c(F)cc(Nc4cc(Cl)nc(N)n4)cc3F)ccnc21
# Read-out: cell-free assay
# Method: competition with immobilised ligand
# Tested at: 0.1 µM
target,remaining binding [%]
"DYRK2 (Homo sapiens, UniProt Q92630)",100
"LATS2 (Homo sapiens, UniProt Q9NRM7)",91
"ROCK1 (Homo sapiens, UniProt Q13464)",76
"EPHA1 (Homo sapiens, UniProt P21709)",100
"PIK3CA (Homo sapiens, UniProt P42336, H1047L)",83
"CDK7 (Homo sapiens, UniProt P50613)",100
"MAPK8 (Homo sapiens, UniProt P45983)",76
"DCLK2 (Homo sapiens, UniProt Q8N568)",100
"NTRK2 (Homo sapiens, UniProt Q16620)",96
"SRPK2 (Homo sapiens, UniProt P78362)",78
"STK3 (Homo sapiens, UniProt Q13188)",92
"HCK (Homo sapiens, UniProt P08631)",100
"FES (Homo sapiens, UniProt P07332)",100

# Series 2
# Organism: Sarcocystis neurona
# Read-out: parasite growth
# Tested at: 10 µM
# Time: 96 h
# Baseline: untreated
Structure (SMILES),log2 fold change
CC[C@]1(O)C[C@H]2CN(CCc3c([nH]c4ccccc34)[C@@](C(=O)OC)(c3cc4c(cc3OC)N(C=O)[C@H]3[C@@](O)(C(=O)OC)[C@H](OC(C)=O)[C@]5(CC)C=CCN6CC[C@]43[C@@H]65)C2)C1,-0.09
CO[C@H]1/C=C/O[C@@]2(C)Oc3c(C)c(O)c4c(O)c(c(/C=N/N5CCN(C6CCCC6)CC5)c(O)c4c3C2=O)NC(=O)/C(C)=C\C=C\[C@H](C)[C@H](O)[C@@H](C)[C@@H](O)[C@@H](C)[C@H](OC(C)=O)[C@@H]1C,0.21
CC(C)(C)C(O)/C=C/c1ccc2c(c1)OCO2 (stereo not drawn),0.43
C=CC[C@@H]1/C=C(\C)C[C@H](C)C[C@H](OC)[C@H]2O[C@@](O)(C(=O)C(=O)N3CCCC[C@H]3C(=O)O[C@H](/C(C)=C/[C@@H]3CC[C@@H](O)[C@H](OC)C3)[C@H](C)[C@@H](O)CC1=O)[C@H](C)C[C@@H]2OC,-0.46
CC(=O)[C@]1(O)Cc2c(O)c3c(c(O)c2[C@@H](O[C@H]2C[C@H](N)[C@H](O)[C@H](C)O2)C1)C(=O)c1ccccc1C3=O,-5.82

# Series 3
# Target: Ribosomal protein S6 kinase beta-2 (RPS6KB2, Homo sapiens, UniProt Q9UBS0)
# Sequence of UniProt Q9UBS0 (whole entry, looked up): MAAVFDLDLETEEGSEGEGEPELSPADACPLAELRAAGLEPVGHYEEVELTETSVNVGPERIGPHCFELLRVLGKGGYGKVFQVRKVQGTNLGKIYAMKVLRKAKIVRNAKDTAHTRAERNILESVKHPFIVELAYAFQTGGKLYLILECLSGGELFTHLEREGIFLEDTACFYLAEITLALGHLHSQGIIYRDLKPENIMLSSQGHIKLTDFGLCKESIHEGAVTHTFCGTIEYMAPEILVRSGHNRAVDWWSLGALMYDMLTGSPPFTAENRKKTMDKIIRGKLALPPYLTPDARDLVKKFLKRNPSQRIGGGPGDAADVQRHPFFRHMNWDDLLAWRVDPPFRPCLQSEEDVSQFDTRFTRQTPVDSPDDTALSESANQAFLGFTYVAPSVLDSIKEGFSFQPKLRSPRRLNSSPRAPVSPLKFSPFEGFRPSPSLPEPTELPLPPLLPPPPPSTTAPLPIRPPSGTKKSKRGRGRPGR
# Read-out: enzyme activity
# Mode: inhibitor
# Tested at: 0.5 µM
# Baseline: control
SMILES,remaining activity
O=C1NC(=O)/C(=C/c2ccc3c(c2)OC(F)(F)O3)S1,101%
COc1cc2c(N3CCN(C(=O)Nc4ccc(OC(C)C)cc4)CC3)ncnc2cc1OCCCN1CCCCC1,102%
O=c1c(-c2ccc(F)cc2)c(-c2ccncc2)[nH]n1-c1ccc(Cl)cc1,95.5%
O=C1c2ccccc2-c2nc3nnnn3nc21,86.3%
N#C/C(=C(/N)SC1C=CC=CC1)c1cccc(C(O)c2ccncc2)c1 (stereo not drawn),98.9%
CC(C)(C)c1nc2c3cc[nH]c(=O)c3c3cc(F)ccc3c2[nH]1,102%

# Series 4
# Cell line: mouse MPNST tumor cells
# Method: high-content immunofluorescence imaging
# Refers to: nuclear SOX9
# Tested at: 10 µM
# Time: 12 h
# Notes: mean of 2 replicates
# Baseline: DMSO control
# Direction: higher = more nuclear SOX9
Compound,nuclear SOX9 intensity
Nc1nc2n[nH]nc2c(=O)[nH]1,124 % of DMSO
O=C(N/N=C/c1ccc([N+](=O)[O-])o1)c1ccc(O)cc1,99.5 % of DMSO
CC(C(=O)O)c1ccc(C(=O)c2ccccc2)s1 (stereo not drawn),104 % of DMSO
CC(=O)N[C@@H](Cc1c[nH]c2ccccc12)C(=O)OCc1cc(C(F)(F)F)cc(C(F)(F)F)c1,84.3 % of DMSO
CC(C)N1CCN(c2ccc(C(=O)c3c(-c4ccc(O)cc4)sc4cc(O)ccc34)cc2)CC1,207 % of DMSO

# Further values, each from its own experiment
SMILES,assay,system,setting,measurement,result
COc1ccc(-c2c(Nc3ccccn3)[nH]c3c(C4=CCCCC4)c(-c4ccccc4)nn3c2=O)cc1,LC-MS/MS,"human, plasma","oral, 50 mg once daily",fluctuation,40.1% and 63.3% and 42.7%

# A few entries again (series 1):
target,remaining binding [%]
"HCK (Homo sapiens, UniProt P08631)",100
"CDK7 (Homo sapiens, UniProt P50613)",100
